Results gathered from unrelated publications.
Each numbered part is a random draw from the data of one study; scales do not carry over between parts.

Series 1
Target: Histone acetyltransferase KAT6A, both winged helices, GST fusion (KAT6A, Homo sapiens, UniProt Q92794, residues 1-181)
Technique: protein binding microarray
Molecule type: double-stranded DNA, one strand shown
Medium: in vitro
Tested at: not given
Setting: 8-mer, flanks averaged, mean of 2 arrays, mostly near background
Reference: not given
Reading: higher = stronger binding
Residues (chain): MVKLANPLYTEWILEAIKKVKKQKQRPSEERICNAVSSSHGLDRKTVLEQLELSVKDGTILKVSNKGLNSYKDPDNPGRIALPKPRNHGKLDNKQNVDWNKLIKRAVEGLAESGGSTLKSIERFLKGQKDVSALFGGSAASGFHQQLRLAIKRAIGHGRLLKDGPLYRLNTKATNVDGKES
Sequence | E-score
GGAAAAGA | -0.0516
CAGATCCA | -0.225
AGGTCTCG | -0.128
CCCGCTAC | 0.211
ATCGTGGG | -0.118
ATGAGAGA | -0.0906
AAAATAGG | -0.157
ATTGCACA | -0.211
GTGTTACA | -0.0107
CATCCACA | -0.189
AGCTATGC | -0.0099
ACCCCGAA | 0.0792
AAGGTAAG | -0.115
ATAAGTTG | -0.0912
GATTATAA | 0.0195
AGTGTTGG | -0.0784
AGGCGCGG | 0.302
AACGTGAG | -0.0407
CTGAGTCA | -0.0419
TCATGTCA | -0.0387
ACGGTTCT | 0.0417
CGGCCACG | 0.19

Series 2
Target: RING finger protein unkempt homolog, zinc fingers 1-6, GST-SBP tag (UNK, Homo sapiens, UniProt Q9C0B0, residues 30-357)
Technique: RNA Bind-n-Seq
Molecule type: RNA
Medium: in vitro
Tested at: not given
Setting: RNA with constant flanks, human and mouse sites, ends assumed
Reference: input RNA pool
Reading: higher = stronger binding
Target sequence (chain): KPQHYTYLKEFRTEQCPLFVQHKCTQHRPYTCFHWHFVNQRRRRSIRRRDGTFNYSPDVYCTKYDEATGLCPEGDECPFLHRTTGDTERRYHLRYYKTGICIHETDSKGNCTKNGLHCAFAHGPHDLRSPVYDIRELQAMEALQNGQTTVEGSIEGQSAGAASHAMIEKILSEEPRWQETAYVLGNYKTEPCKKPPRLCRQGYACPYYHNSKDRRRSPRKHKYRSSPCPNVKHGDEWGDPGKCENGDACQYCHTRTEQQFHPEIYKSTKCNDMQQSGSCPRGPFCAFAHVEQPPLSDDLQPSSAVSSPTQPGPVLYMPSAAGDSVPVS
Sequence | bound/input enrichment [ratio]
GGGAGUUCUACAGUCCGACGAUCAAAGAAUGUGCUAAUUUCAUCAAGGUACUUAAGGCAUAUAAUCAGACUCACUUGUACGCCUGUGGAACGGGGGCUUUUCAUCCAAUUUGCACCUACAUUGAAAUUGGACAUCAUCCUGAGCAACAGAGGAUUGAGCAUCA | 0.221
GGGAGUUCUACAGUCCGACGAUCUGGCUUCAGGAUGUAGAGGGCCUGCAGGCUGGAGGACGUGUGCCAGUGUUAGACACACUCAUAGAACUUGUUACACGAGGCCGAUCUAUCCCCGUACAUCUGAAUUCUUUGCCAAGACUGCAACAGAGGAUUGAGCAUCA | 0.177
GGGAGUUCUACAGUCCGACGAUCGAUGUGUCUCCAUCUCUGCAUGCUGAGGUUGGCUCCCCACAUUCCACAGAAGUAGAUGACUCCCUUUCAGUGUCUGUUGUGCAAACACCUACCACAUUCCAGGAAACAGAAAUGUCUCCACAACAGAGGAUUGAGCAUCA | 0.104
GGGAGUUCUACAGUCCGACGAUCUGGCUCCGCGGUGUCUUCCGCUUCGCCACCGAUCGAAACGACUUCCGGAGGAACUUGAUCCUCAAUUUGGGACUCUUUGCUGCGGGAGUCUGGCUGGCCAGGAACUUGAGUGACAUUGAUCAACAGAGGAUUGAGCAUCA | 0.0976
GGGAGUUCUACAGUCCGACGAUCGGGAACCCUGCCUGUUCAGCCCAGGUGCAGCAUGUCUCGCCUUCCAUUUUCCCAGCUCAUUUAGCAAGUGUAUCAGCUCCAUUGUUACCCUCAGUGGAAAGUGUCCUAAGUCCAAAUAUACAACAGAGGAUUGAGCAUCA | 0.326
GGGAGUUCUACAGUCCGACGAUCACAUUUUCCUCCUAAUAAAUUAUCCUUGUGAUGGGCGACAUGGCCAACAACUCAGUUGCGUAUAGCGGUGUGAAGAACUCUUUGAAAGAAGCUAACCAUGAUGGAGACUUUGGAAUUACGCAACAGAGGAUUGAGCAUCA | 0.648
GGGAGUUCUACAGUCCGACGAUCCCCUUUGGUAUUGUGAAAGCAUCCUGGCUACCAAAGUUUUCACAUGCUGAUGCCCAGAAGAUGAAGAGACUUCCAACUCCUUCUAUGAUGAAUGAUUAUUAUGCAGCAUCUCCAAGAAUACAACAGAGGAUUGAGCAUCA | 0.105
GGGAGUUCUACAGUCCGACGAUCAAACACCCUUUGUAUUCCAAAAUAGGGUCUCAAAACAUUUUGUAAUUUUCAUUUAAAUUGUUAGGAGGCUUGGAGCUAUUAGUUAAUCUAUCUUCCAAUACUGUUUAAUAUAGCACUGAACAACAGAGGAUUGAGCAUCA | 1.68
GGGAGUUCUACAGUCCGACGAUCGCUGGCCCCUUGAGCACCGGGAACCCAGGCUUUGGUUAGAGUUCAAGUUGAGUUUCCCUCUUGUUUAUGUGGCUGUGGGACAGGAGGGGCUCGUUAUCUCUCUGCUGUGGCACUGGCUGCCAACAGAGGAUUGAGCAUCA | 0.266
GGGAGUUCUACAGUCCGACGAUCUCUACAUCUUCAUCUAUGCAGCCCAGCCCUGUAUCAAAUCAGUCACUUUUAUCAGAAUCUGUAGCAUCUUCUCAAUUGGACAGUACAUCUGUGGACAAAGCAGUACCUGAAACAGAAGAUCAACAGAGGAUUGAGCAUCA | 0.299
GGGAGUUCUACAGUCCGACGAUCUGUAGGACUCCAUGCUGCCAGUUUCUUUUUUGGUUCCUUUCUGCCCAGGACUGCAUGAGUUUCCCAGCCCCAAGUGGGGGCUGCUAGGCCCUUCCUCCCUGCCUCUGGGAACCGGGCUGGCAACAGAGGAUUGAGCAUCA | 0.384

Series 3
Target: RNA binding protein fox-1 homolog 2, RRM domain, GST-SBP tag (RBFOX2, Homo sapiens, UniProt O43251-10, residues 100-194)
Technique: RNA Bind-n-Seq
Molecule type: RNA
Medium: in vitro
Tested at: 365 nM
Setting: natural RNA segment, single round, ends assumed
Reference: no-protein control
Reading: higher = stronger binding
Construct (chain): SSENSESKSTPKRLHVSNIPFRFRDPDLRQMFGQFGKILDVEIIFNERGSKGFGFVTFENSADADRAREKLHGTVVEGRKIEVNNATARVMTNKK
Sequence | RBNS enrichment (R)
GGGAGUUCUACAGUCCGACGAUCCAAAGAAUUUCUGUGGGGAUUUGUACCCCAGAAUCCUGUUCCCCCAUCCCUUCUCCCACCUCCUCCCCUCUCCCUCCCCCUGGAGACCCUGGAAGUGGUGUGUUCACAUAUGGAAUUCUCGGGUGCCAA | 0.622
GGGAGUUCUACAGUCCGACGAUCCGCAGCUCUUCUGCCUGGUUUUCGGAGGCCAGGCUGCUGGGAAGCUUCCGUGUUCCUGUCAGUCCUUCCUUCAAGAAGCCGGGGAACUCAGGCAGACUCAUCUCCGCAGAUGGAAUUCUCGGGUGCCAA | 0.23
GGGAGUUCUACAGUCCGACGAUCCCUCCUGACUGAGCCUACCACCCGCAGGUCUCCAUGAAACUUUCCCUCAUGUCCUCAGUGGUCUGGCAAGCCGUUCACCCCUGCUGACAGGCUUCAAGCUGCUAAACACCUGGAAUUCUCGGGUGCCAA | 0.396
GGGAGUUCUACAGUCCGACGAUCUUCUGGAUGUGUUCUCUUACUCCCUCUUACCACCAUACUUUUUGCUCUCUUCUCCUGCAAGCGUAGUCUUCACAGGGAGUGGCUUCCUGACAUUUUUUUCAGUUAUGUGAUGGAAUUCUCGGGUGCCAA | 0.769
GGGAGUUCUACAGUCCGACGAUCGAUACAUCCUUACCCCUAGAAGGGAAUUCCUCCACCAGGAAAGGGCUCACCACCCAUCUGCACAAGCUCAGUGCUGACCAGGGACCUGGGCUUCACAUUGGGUCCUGGCCUGGAAUUCUCGGGUGCCAA | 0.439
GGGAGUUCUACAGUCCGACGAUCCUCACCCCUCGGUGCCUGGGCCCAGCCCCGUGCCCCUCCGUCUGCCUCCGCACGGCUGGCAGAGGGCAGGCUGCAUGCAGUGGCGGCUACUGGGCCCUGCCCAGCCCCGGUGGAAUUCUCGGGUGCCAA | 1.47
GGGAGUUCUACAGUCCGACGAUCAAGUGAAAGCAUCAUCCCCCAAAGGAUCACUGCACAGUCCUACUACAGUAUUUUUAAGUAGCCCUCUAAAUACUUAAUUUUAAGCAAAAUCCCUUGGCCGCACUUUUAAGUGGAAUUCUCGGGUGCCAA | 0.954
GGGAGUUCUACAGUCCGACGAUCCACAGCCUGGAGACACCCACACAGAUGGCUGGAUCCGGUGCUACGGGAAACAUUUUCCUAAGAUGCCCAUGAGAACAGACCAAGAUGUGUACAGCACUAUGAGCAUUAAAUGGAAUUCUCGGGUGCCAA | 0.337
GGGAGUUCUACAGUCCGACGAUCAAAGUCAGUGGGAACGUGACUGCCCCAACUCCUGGAAGCUGUGUCCUUGCACCUGCAUCCGUAGUUCCCUGAAAACCCAGAGAGGAAUCAGACUUCACACUGCAAGAGCCUGGAAUUCUCGGGUGCCAA | 0.493

Series 4
Target: Interferon regulatory factor 5, full length, phosphomimetic (IRF5, Homo sapiens, UniProt Q13568-2, residues 1-514, K96S/S451D/S453D/S456D/S462D)
Technique: protein-binding microarray
Molecule type: double-stranded DNA, one strand shown
Medium: in vitro
Tested at: 250 nM
Setting: 60-bp whole probe
With: salmon DNA 0.4 mg/ml
Reference: random background probes
Reading: higher = stronger binding
All sequences stand within: GCCTAGCAC … GTCTTGATTCGCTTGACGCTGCTG
Sequence | log fluorescence
TTAGGACTGCTTTTCCCTTAGTGCTAG | 0.231 z-score
GACGGTTTCAGTTCCGGGACGTGCTAG | 3.08 z-score
CTCACCGCTGGAGTTCTGCGGTGCTAG | -0.653 z-score
GACGGTATCGCTATCGGGACGTGCTAG | 3.07 z-score
TTAGGTGTCGACTATCGGTTAGTGCTA | 6.4 z-score
GCATCTATCTTAAATAGGGACGTGCTA | 0.438 z-score
TTAGATTTAAGTCTCGATTAGTGCTAG | 1.07 z-score
TCATGAGTCACTTCTGGTACTGTGCTA | -0.107 z-score
GACCGTATCCTTCTCCTGACGTGCTAG | 0.239 z-score
TTAGGTTTCGGGAGTGGGTTAGTGCTA | 5.87 z-score
TTAGATCTGGGGTTTCGATTAGTGCTA | 5.24 z-score
GATGATATCAGTATCGAGACGTGCTAG | 3.73 z-score
GACGGTCGCCTACTGCTGACGTGCTAG | -0.44 z-score
CACGGTTTCGGGTATCGGGACGTGCTA | 7.52 z-score
TCATCTTCCCTTTTAAGACTGTGCTAG | 0.773 z-score
GACGGACTGGGTCTGGGGACGTGCTAG | -0.766 z-score
GACGGTCTCCATATCCTGACGTGCTAG | -0.0267 z-score
GACGATTTCACTTCCGAGACGTGCTAG | 1.6 z-score
GACGATATCAGTTTCAAGACGTGCTAG | 2.47 z-score
ACAAATACAAGTTTCTCCTTGTGCTAG | 1.62 z-score

A few entries again (series 4):
Sequence | log fluorescence
TCATGAGTCACTTCTGGTACTGTGCTA | -0.107 z-score
GACCGTATCCTTCTCCTGACGTGCTAG | 0.239 z-score
TTAGGTTTCGGGAGTGGGTTAGTGCTA | 5.87 z-score
